{"data": "Published values from different studies", "PIK3CD with p85 alpha": "Phosphatidylinositol 4,5-bisphosphate 3-kinase catalytic subunit delta isoform, with p85 alpha (PIK3CD, Homo sapiens, UniProt O00329)", "PIK3CD": "Phosphatidylinositol 4,5-bisphosphate 3-kinase catalytic subunit delta isoform (PIK3CD, Homo sapiens, UniProt O00329)"}
{"target": "PIK3CD with p85 alpha", "assay": "inhibitor, KinaseProfiler panel", "setting": "1 µM", "endpoint": "inhibition", "result": "2%", "Compound": "CN1CC[C@@H](COc2cnc(C#N)cc2-c2ccn3nc(NC(=O)C4CC4)cc3c2)C1"}
{"target": "PIK3CD", "assay": "KINOMEscan", "setting": "1 µM", "scale": "reference: DMSO control", "endpoint": "remaining binding", "result": "100%", "Compound": "C=CC(=O)N1CCc2ccc(-n3c(=O)ccc4cnc5ccc(-c6cnn(C)c6)cc5c43)cc21"}
{"target": "PIK3CD", "assay": "enzyme activity, inhibitor", "setting": "0.1 µM", "endpoint": "inhibition", "result": "19%", "Compound": "C=CC(=O)Nc1cccc(-c2cnc3[nH]cc(C(=O)NC(C)(C)C)c3n2)c1"}
{"target": "PIK3CD", "assay": "KinomeScan", "setting": "0.1 µM", "scale": "reference: untreated", "endpoint": "remaining binding", "result": "88%", "Compound": "CNC1C[S+]2CC[S+]3CC[S+](C1)[Ru-4]321([N]=C=S)[n]2c3ccc(OC)cc3c3c4c(c5cc(F)c[n+]1c5c32)C(=O)NC4=O (centres unmarked)"}
{"target": "PIK3CD", "assay": "binding, competition with immobilised ligand", "setting": "1 µM", "endpoint": "remaining binding", "result": "100%", "Compound": "CNC(=O)C1CCN(c2cc(C)c(F)cc2NC(=O)c2ccc(-c3cc(O)ccc3C)c(C)c2)CC1"}
{"target": "PIK3CD with p85 alpha", "assay": "kinome panel", "setting": "1 µM", "endpoint": "inhibition", "result": "15.4%", "Compound": "C=CC(=O)N1Cc2nc(-c3cc(-c4cc(Cl)cnc4Cl)c(F)cc3F)n(-c3ccncn3)c2C1"}
{"target": "PIK3CD", "assay": "probe labelling, inhibitor, KiNativ chemoproteomics", "system": "MOLT-4", "setting": "1 µM", "endpoint": "inhibition", "result": "-10.9%", "Compound": "CS(=O)(=O)Nc1cccc(-c2csc3cnc(Nc4ccc(N5CCN(CCCCCOc6cccc7c6C(=O)N(C6CCC(=O)NC6=O)C7=O)CC5)cc4)nc23)c1 (centres unmarked)"}
{"target": "PIK3CD", "assay": "cell-free assay, competition with immobilised ligand", "setting": "10 µM", "endpoint": "remaining binding", "result": "79%", "Compound": "CC(C)=CC1OC(C)(C)C2C=C3C(=O)C(Cl)=CC(O)C3C3C(O)C4OC4C(=O)C132 (centres unmarked)"}
{"target": "PIK3CD", "assay": "cell-free assay, competition with immobilised ligand", "setting": "1 µM", "endpoint": "remaining binding", "result": "100%", "Compound": "Cc1ccc(-c2c(/C=C(\\C#N)C(=O)NC(C)C)n(CCCO)c3ncnc(N)c23)cc1"}
{"target": "PIK3CD", "assay": "binding, competition with immobilised ligand", "setting": "1 µM", "endpoint": "remaining binding", "result": "55%", "Compound": "COc1cc(Nc2nccc(-c3cnn4nc(OC)ccc34)n2)cc(C(F)(F)F)c1"}
{"target": "PIK3CD", "assay": "kinase occupancy, inhibitor, KiNativ ATP probe profiling", "system": "intact PBMC", "setting": "0.01 µM, 1 h", "endpoint": "inhibition of probe binding", "result": "9.2%", "Compound": "CC(=O)c1cnc(N)nc1N1CC[C@H]1c1nn2ccc(Cl)c2c(=O)n1-c1ccccc1"}
{"note": "Excerpt of the above:"}
{"target": "PIK3CD", "assay": "probe labelling, inhibitor, KiNativ chemoproteomics", "system": "MOLT-4", "setting": "1 µM", "endpoint": "inhibition", "result": "-10.9%", "Compound": "CS(=O)(=O)Nc1cccc(-c2csc3cnc(Nc4ccc(N5CCN(CCCCCOc6cccc7c6C(=O)N(C6CCC(=O)NC6=O)C7=O)CC5)cc4)nc23)c1 (centres unmarked)"}
{"target": "PIK3CD", "assay": "cell-free assay, competition with immobilised ligand", "setting": "1 µM", "endpoint": "remaining binding", "result": "100%", "Compound": "Cc1ccc(-c2c(/C=C(\\C#N)C(=O)NC(C)C)n(CCCO)c3ncnc(N)c23)cc1"}
